Measurements of several laboratories.
Parts stem from different laboratories: compare values within a part only. Several values in a cell are separate wells, animals, samples, runs or records.
Chain of UniProt Q6P2M8 (whole entry, looked up): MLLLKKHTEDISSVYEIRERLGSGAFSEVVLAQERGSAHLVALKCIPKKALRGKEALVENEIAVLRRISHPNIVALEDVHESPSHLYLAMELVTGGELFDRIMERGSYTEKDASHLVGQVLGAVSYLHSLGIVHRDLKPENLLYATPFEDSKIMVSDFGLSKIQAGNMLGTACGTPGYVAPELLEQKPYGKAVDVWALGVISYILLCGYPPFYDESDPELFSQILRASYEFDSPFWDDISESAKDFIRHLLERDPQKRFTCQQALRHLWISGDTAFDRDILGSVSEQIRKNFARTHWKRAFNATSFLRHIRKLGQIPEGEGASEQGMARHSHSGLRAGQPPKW
Chain of UniProt P68400 (whole entry, looked up): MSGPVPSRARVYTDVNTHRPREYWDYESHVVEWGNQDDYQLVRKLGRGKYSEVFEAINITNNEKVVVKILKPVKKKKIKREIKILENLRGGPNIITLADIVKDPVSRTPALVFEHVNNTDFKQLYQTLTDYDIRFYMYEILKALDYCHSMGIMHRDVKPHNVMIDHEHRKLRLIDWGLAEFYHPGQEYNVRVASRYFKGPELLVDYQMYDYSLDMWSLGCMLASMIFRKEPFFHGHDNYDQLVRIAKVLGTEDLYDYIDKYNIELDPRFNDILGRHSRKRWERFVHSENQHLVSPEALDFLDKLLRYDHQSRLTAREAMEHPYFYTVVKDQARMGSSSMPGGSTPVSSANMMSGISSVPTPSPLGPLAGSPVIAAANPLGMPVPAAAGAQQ
Chain of UniProt Q13523 (whole entry, looked up): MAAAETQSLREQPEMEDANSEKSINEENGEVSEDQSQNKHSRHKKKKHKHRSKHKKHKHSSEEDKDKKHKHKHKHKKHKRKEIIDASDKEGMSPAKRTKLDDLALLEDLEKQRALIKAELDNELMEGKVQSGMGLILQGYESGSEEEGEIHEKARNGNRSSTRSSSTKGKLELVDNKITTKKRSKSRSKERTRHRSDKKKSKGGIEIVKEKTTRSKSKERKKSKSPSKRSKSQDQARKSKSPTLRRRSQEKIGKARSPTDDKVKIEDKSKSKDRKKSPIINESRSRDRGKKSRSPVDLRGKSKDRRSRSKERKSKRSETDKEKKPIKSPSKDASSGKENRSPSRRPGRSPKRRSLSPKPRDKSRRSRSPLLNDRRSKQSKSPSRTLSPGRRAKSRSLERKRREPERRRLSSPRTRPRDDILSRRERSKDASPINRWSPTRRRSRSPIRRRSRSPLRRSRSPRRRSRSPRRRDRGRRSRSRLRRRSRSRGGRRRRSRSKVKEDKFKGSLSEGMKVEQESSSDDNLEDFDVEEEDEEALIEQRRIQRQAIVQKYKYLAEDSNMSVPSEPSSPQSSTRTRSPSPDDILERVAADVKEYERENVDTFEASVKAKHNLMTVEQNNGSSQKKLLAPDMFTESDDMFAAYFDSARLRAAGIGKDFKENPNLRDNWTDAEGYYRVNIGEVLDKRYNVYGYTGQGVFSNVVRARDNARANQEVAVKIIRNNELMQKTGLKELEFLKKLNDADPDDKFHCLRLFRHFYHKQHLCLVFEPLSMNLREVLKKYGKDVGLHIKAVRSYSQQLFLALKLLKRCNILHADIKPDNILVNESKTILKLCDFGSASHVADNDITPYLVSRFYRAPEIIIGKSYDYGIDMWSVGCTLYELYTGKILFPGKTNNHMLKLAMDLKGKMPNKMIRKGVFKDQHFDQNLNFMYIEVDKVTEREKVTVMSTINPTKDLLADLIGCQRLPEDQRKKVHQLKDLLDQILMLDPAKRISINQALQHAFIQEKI
Chain of UniProt Q5VT25 (whole entry, looked up): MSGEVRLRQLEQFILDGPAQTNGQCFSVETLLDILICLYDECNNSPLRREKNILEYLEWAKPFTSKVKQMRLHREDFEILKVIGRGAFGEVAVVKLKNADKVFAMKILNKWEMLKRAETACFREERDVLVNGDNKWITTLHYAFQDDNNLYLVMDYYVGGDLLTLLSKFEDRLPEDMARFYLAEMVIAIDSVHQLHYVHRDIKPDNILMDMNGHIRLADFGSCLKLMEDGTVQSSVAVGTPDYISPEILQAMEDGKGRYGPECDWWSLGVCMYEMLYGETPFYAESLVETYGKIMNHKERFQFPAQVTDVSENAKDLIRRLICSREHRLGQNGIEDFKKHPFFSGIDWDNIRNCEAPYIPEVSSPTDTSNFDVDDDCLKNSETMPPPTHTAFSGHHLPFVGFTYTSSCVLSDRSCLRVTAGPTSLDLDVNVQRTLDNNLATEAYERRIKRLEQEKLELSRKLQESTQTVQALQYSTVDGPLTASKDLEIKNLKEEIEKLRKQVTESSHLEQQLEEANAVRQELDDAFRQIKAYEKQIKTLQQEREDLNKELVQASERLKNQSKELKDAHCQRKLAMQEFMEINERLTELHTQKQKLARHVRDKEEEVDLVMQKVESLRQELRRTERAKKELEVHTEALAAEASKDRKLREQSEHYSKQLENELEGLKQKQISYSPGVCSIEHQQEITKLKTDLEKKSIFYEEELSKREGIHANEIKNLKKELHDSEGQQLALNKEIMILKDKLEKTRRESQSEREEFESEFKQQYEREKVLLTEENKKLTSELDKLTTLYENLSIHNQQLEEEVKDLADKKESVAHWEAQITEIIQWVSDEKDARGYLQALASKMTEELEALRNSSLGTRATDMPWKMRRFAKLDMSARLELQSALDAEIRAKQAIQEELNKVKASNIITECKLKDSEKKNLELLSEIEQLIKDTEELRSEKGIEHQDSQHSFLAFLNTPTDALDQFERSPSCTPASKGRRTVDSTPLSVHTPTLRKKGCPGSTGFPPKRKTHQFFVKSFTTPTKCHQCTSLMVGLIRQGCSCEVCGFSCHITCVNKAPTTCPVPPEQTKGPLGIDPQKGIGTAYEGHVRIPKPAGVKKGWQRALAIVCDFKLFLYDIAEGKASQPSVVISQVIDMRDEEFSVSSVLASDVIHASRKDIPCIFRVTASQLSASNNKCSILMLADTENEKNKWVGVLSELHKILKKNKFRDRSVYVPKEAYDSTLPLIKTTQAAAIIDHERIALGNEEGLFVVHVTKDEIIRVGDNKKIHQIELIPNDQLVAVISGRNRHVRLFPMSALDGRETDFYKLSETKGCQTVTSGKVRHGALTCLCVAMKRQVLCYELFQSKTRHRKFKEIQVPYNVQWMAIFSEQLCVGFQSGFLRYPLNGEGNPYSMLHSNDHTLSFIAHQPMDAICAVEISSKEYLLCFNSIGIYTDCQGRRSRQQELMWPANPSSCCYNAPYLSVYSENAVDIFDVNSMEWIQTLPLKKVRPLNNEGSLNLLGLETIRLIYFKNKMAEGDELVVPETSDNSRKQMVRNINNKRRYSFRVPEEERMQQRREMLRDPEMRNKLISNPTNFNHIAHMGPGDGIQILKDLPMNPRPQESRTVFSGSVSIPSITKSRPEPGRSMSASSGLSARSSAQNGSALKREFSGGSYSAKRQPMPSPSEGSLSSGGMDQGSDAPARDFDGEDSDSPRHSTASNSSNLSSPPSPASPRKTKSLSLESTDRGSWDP
Chain of UniProt Q06418 (whole entry, looked up): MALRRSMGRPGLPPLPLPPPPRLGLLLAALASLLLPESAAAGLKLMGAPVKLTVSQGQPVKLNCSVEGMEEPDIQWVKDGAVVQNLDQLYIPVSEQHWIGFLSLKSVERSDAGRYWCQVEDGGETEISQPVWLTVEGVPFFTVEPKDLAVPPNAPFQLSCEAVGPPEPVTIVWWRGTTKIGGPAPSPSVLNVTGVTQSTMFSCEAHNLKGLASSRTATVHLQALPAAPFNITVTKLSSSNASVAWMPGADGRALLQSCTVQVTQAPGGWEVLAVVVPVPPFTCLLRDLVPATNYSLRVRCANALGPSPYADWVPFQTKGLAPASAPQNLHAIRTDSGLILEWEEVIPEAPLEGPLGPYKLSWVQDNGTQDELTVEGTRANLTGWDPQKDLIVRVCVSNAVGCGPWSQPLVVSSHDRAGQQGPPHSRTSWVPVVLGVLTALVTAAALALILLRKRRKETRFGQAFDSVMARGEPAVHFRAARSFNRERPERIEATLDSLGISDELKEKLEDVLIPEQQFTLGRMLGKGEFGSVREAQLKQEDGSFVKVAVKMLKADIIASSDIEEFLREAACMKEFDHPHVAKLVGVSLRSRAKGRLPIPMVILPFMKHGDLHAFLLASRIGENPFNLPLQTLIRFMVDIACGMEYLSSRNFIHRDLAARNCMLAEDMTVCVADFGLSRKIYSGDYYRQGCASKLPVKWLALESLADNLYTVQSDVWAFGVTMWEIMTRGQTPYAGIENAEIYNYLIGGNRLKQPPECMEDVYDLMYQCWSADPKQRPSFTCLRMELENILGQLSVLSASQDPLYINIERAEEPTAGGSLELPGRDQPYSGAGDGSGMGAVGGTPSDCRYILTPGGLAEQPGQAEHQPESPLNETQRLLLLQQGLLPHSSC

Study 1
Structure (SMILES): CC(=O)N1CCC(c2ccc(C(=O)NC3=NCCN3)cc2C(F)(F)F)CC1
Observed: cell-free assay
Method: competition with immobilised ligand
Tested at: 1 µM
Measurement: remaining binding
Megakaryocyte-associated tyrosine-protein kinase (MATK, Homo sapiens, UniProt P42679): 100%
LIM domain kinase 1 (LIMK1, Homo sapiens, UniProt P53667): 100%
Ephrin type-B receptor 3 (EPHB3, Homo sapiens, UniProt P54753): 93%
Leucine-rich repeat serine/threonine-protein kinase 2 (LRRK2, Homo sapiens, UniProt Q5S007, G2019S): 100%
Serine/threonine-protein kinase MRCK alpha (CDC42BPA, Homo sapiens, UniProt Q5VT25): 100%
cAMP-dependent protein kinase catalytic subunit alpha (PRKACA, Homo sapiens, UniProt P17612): 100%
Calcium/calmodulin-dependent protein kinase type 1B (PNCK, Homo sapiens, UniProt Q6P2M8): 88%
Phosphatidylinositol 4-kinase beta (PI4KB, Homo sapiens, UniProt Q9UBF8): 91%
Tyrosine-protein kinase Mer (MERTK, Homo sapiens, UniProt Q12866): 100%
Mitogen-activated protein kinase kinase kinase kinase 3 (MAP4K3, Homo sapiens, UniProt Q8IVH8): 95%
Serine/threonine-protein kinase B-raf (BRAF, Homo sapiens, UniProt P15056, V600E): 100%
Tyrosine-protein kinase receptor TYRO3 (TYRO3, Homo sapiens, UniProt Q06418): 89%
Beta-adrenergic receptor kinase 1 (GRK2, Homo sapiens, UniProt P25098): 77%
Serine/threonine-protein kinase PRP4 homolog (PRPF4B, Homo sapiens, UniProt Q13523): 100%
Serine/threonine-protein kinase 17B (STK17B, Homo sapiens, UniProt O94768): 100%
Casein kinase II subunit alpha (CSNK2A1, Homo sapiens, UniProt P68400): 86%
Cyclin-dependent kinase 7 (CDK7, Homo sapiens, UniProt P50613): 89%
Mitogen-activated protein kinase 3 (MAPK3, Homo sapiens, UniProt P27361): 100%

Study 2
Target: Serine/threonine-protein kinase Sgk1 (SGK1, Homo sapiens, UniProt O00141)
Observed: enzyme activity
Mode: inhibitor
Tested at: 0.5 µM
Baseline: control
Measurement: remaining activity
Construct (O00141 1-431): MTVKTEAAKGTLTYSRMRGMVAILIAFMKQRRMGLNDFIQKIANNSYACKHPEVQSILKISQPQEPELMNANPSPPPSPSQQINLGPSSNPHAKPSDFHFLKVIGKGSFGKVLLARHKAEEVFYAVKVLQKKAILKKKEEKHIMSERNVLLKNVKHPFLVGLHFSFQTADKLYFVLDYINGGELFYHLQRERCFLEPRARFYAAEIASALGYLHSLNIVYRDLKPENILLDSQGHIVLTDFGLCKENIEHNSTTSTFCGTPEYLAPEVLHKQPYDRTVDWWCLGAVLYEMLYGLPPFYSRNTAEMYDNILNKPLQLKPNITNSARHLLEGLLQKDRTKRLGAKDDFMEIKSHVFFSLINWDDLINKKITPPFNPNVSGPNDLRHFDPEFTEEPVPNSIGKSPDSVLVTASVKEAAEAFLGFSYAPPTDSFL
C[C@@H](N)[C@H]1CC[C@H](C(=O)Nc2ccncc2)CC1: 96.9%
O=C(c1ccccc1)c1ccc(N2CCOCC2)cc1O: 101%
N#CC(c1ccnc(NCCc2cccnc2)n1)c1nc2ccccc2s1 (centres unmarked): 100%
N#C/C(=C(/N)SC1C=CC=CC1)c1cccc(C(O)c2ccncc2)c1 (centres unmarked): 107%
CCCCc1c(-c2ccc(O)cc2)[nH]c2nccnc12: 88.1%
FC(F)(F)c1ccc(/C=C/c2nc(COc3ccc(CCCCn4ccnn4)cc3)co2)cc1: 102%
O=c1c(-c2ccc(F)cc2)c(-c2ccncc2)[nH]n1-c1ccc(Cl)cc1: 97.3%
NC(=O)c1cccc(-c2cc(Nc3ccc(OC(F)(F)F)cc3)ncn2)c1: 101%
O=C1NC(=O)/C(=C/c2ccc3c(c2)OC(F)(F)O3)S1: 102%
CC(C)(C)c1nc2c3cc[nH]c(=O)c3c3cc(F)ccc3c2[nH]1: 50.9%
COc1cc2c(Nc3ccc(Br)cc3F)ncnc2cc1OCC1CCN(C)CC1: 115%
Clc1ccc(Nc2nnc(Cc3ccncc3)c3ccccc23)cc1: 121%
CNc1cc2c(Nc3cccc(Br)c3)ncnc2cn1: 94.4%
Nc1nc(Nc2ccc(S(N)(=O)=O)cc2)nn1C(=S)Nc1c(F)cccc1F: 48.7%
CC(C)N(CCC(=O)c1ccc2ccccc2c1)Cc1ccccc1: 101%
NC(=O)c1ccc(-c2nc(-c3ccc4c(c3)OCCO4)c(-c3ccccn3)[nH]2)cc1: 110%
O=Nc1c(-c2c(O)[nH]c3ccccc23)[nH]c2ccccc12: 69.1%
O=C(O)/C=C/c1cc(Br)c(Br)c(Br)c1Br: 76.7%
CCN(CC)CCCCN1c2ccccc2Oc2ccc(Cl)cc21: 99.4%
COc1cc2c(N3CCN(C(=O)Nc4ccc(OC(C)C)cc4)CC3)ncnc2cc1OCCCN1CCCCC1: 123%
O=C1c2ccccc2-c2nc3nnnn3nc21: 67.2%
c1cc(-c2cnn3cc(-c4ccc(OCCN5CCCCC5)cc4)cnc23)ccn1: 55.2%
CC(C)n1cnc2c(Nc3cccc(Cl)c3)nc(NCCO)nc21: 114%

Study 3
SMILES: CN(C(=O)c1ccn2ncc(-c3ccc(C(N)=O)cc3)c2c1)c1ccc(C#N)cn1
Organism: Cryptosporidium parvum
Method: time-kill
Cell line: HCT-8
Strain: nanoluciferase-expressing
Baseline: DMSO control
Measurement: luminescence remaining
0.2469 µM, 8 h: 104% and 103%
20 µM, 48 h: 13.5% and 12.3%
2.222 µM, 48 h: 9.45% and 14.3%
2.222 µM, 24 h: 45.7% and 35.3%
0.00102 µM, 48 h: 71.5% and 110%
20 µM, 24 h: 38.1% and 41.2%
0.00305 µM, 72 h: 75.1% and 93.8%
2.222 µM, 0 h: 90.3% and 103% and 98% and 99.4% and 90.1% and 97.4% and 91.2% and 91.4%
0.02743 µM, 8 h: 97.5% and 113%
20 µM, 0 h: 103% and 98% and 97.4% and 91.4% and 91.2% and 90.1% and 99.4% and 90.3%

Study 4
Target: Calcium/calmodulin-dependent protein kinase type II subunit alpha (CAMK2A, Homo sapiens, UniProt Q9UQM7)
Chain of UniProt Q9UQM7 (whole entry, looked up): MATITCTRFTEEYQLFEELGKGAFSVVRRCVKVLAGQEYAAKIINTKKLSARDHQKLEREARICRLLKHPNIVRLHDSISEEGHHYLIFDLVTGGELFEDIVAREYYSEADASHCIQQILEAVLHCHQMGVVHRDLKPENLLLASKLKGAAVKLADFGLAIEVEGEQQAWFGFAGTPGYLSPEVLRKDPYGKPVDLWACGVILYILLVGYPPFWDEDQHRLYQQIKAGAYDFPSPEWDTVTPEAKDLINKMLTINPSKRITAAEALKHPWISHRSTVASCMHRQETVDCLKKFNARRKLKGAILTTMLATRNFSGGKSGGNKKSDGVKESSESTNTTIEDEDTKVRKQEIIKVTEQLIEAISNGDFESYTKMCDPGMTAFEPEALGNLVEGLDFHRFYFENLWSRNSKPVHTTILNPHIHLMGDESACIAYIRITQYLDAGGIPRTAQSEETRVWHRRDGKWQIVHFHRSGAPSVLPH
Observed: enzyme activity
Mode: inhibitor
Tested at: 10 µM
Measurement: inhibition
CC(C)NC[C@@H](O)COc1cccc2ccccc12: 5%
CC(=O)O[C@@H]1CC[C@@]2(C)[C@@H](CC[C@]3(C)[C@@H]2CC=C2[C@@H]4[C@@H](C)[C@H](C)CC[C@]4(C)CC[C@]23C)[C@@]1(C)C(=O)O: 13%
C[C@H]1[C@H]2CC[C@H]3[C@@H]4CC=C5C[C@@H](N(C)C)CC[C@]5(C)[C@H]4CC[C@]23CN1C: -96%
CC1(C)CC[C@]2(C(=O)O)CC[C@]3(C)C(=CC[C@@H]4[C@@]5(C)CC[C@H](O[C@@H]6OC[C@H](O)[C@H](O)[C@H]6O[C@@H]6O[C@H](CO)[C@@H](O)[C@H](O)[C@H]6O)[C@@](C)(CO)[C@@H]5CC[C@]43C)[C@@H]2C1: 16%
CC(C)C[C@H](O)C(=O)O: -11%

Excerpt of the above (study 2):
NC(=O)c1cccc(-c2cc(Nc3ccc(OC(F)(F)F)cc3)ncn2)c1: 101%
O=C(c1ccccc1)c1ccc(N2CCOCC2)cc1O: 101%
Nc1nc(Nc2ccc(S(N)(=O)=O)cc2)nn1C(=S)Nc1c(F)cccc1F: 48.7%
CNc1cc2c(Nc3cccc(Br)c3)ncnc2cn1: 94.4%
CC(C)(C)c1nc2c3cc[nH]c(=O)c3c3cc(F)ccc3c2[nH]1: 50.9%
CC(C)n1cnc2c(Nc3cccc(Cl)c3)nc(NCCO)nc21: 114%
N#CC(c1ccnc(NCCc2cccnc2)n1)c1nc2ccccc2s1 (centres unmarked): 100%
N#C/C(=C(/N)SC1C=CC=CC1)c1cccc(C(O)c2ccncc2)c1 (centres unmarked): 107%
COc1cc2c(N3CCN(C(=O)Nc4ccc(OC(C)C)cc4)CC3)ncnc2cc1OCCCN1CCCCC1: 123%
